Results collected from several papers.
Numbered parts are unrelated; each lists some results of a single study.

Set 1
Target: Ras GTPase-activating protein-binding protein 1, C-terminal RGG region (G3BP1, Homo sapiens, UniProt Q13283)
Chain of UniProt Q13283 (whole entry, looked up): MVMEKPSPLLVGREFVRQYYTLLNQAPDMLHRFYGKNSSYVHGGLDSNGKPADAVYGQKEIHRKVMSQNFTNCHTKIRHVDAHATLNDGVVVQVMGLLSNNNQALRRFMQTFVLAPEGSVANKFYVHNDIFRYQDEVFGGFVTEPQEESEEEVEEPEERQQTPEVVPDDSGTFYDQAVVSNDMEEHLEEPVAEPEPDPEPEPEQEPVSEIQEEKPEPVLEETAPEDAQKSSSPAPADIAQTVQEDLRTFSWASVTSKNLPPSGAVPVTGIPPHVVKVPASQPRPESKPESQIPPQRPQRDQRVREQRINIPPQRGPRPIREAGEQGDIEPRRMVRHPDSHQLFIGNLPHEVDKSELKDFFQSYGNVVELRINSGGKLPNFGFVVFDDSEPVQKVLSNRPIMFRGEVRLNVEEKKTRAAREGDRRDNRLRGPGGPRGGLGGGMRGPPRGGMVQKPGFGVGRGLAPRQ
Method: RNA Bind-n-Seq
Form: RNA
Matrix: in vitro
Concentration: 1 µM
Setting: whole 134-nt RNA, ends assumed
With: 150 mM KCl
Baseline: input library
Reading: higher = stronger binding
All sequences stand within: GGGAGUUCUACAGUCCGACGAUC … UGGAAUUCUCGGGUGUCAAGG
`AAGUCCUGUGCUACACAUCGUAUGUACCGAAUCGGAAAAAAAGGAAAGGUUUUUGGAAAGUAUUAUGUUACGCCGUUCGGAUCUGCACUU` has a log2 enrichment of -2.18.
With `AAGUCCUGUGCUACACAUCGUAUGUACCGAAUCGGGAAAAAGGGAGGGUUUUUGGGAAAGUAUUAUGUUACGCCGUUCGGAUCUGCACUU` the log2 enrichment was 1.45.
For `ACCAAACAGGUGGGCAUCUUUGGGAAGUGGGGCAAGGGGGGGAUAGGGAGGGGGGUAACACUUUGGGAACAGGUGGUCCCAGGUCGUUUC`, the log2 enrichment was -0.914.
`GCAGGACGUAAAAACAAAUGGAAAUGCUUCGGAUAGUGGCAGGGGUGGGGGUUGCUAAGGAAAGGGUGGGAUGGGAGUGGGUAAAGAGUU` gave a log2 enrichment of 1.28.
`CAAGUCCUGUGCUACACAUCGUAUGUACCGAAUCGGUUUUUUUGGUGGUUUUUGGAAAGUAUUAUGUUACGCCGUUCGGAUCUGCACUUC` gave a log2 enrichment of -1.72.
With `CUCCUGGAGUGGAUCCGGCGCACCAUCCCCUGGCUGGAGGACCGUGUGCCCCAAAAGACUAUCCAGGAGAUGCAGCAGAAGCUGGAGGAC` the log2 enrichment was -2.43.
`CUCAAGUCCUGUGCUACACAUCGUAUGUACCGAAUCGGGCCGGCCGGCCGGGGAAAGUAUUAUGUUACGCCGUUCGGAUCUGCACUUCCA` has a log2 enrichment of -0.948.
`UCAAGUCCUGUGCUACACAUCGUAUGUACCGAAUCGGGGAGGGGAGGGGUGGGGAAAGUAUUAUGUUACGCCGUUCGGAUCUGCACUUCC` has a log2 enrichment of 3.23.
With `CUGUGCUACACAUCGUAUGUACCGAAUCGGGUUUUUUUGGGGUUUUUUUGGGUUUUUUUGGAAAGUAUUAUGUUACGCCGUUCGGAUCUG` the log2 enrichment was -0.978.
With `CAAGUCCUGUGCUACACAUCGUAUGUACCGAAUCGGGCCCGGCCCGGGGCCCGGGGAAAGUAUUAUGUUACGCCGUUCGGAUCUGCACUU` the log2 enrichment was -1.68.
The log2 enrichment of `AGUCCUGUGCUACACAUCGUAUGUACCGAAUCGGGAAAAAGGAAAAAGGAAAAAGGGAAAGUAUUAUGUUACGCCGUUCGGAUCUGCACU` is reported as -1.83.
`AAGUCCUGUGCUACACAUCGUAUGUACCGAAUCGGGGUUUUGGUUUUGGGGUUUUGGAAAGUAUUAUGUUACGCCGUUCGGAUCUGCACU` gave a log2 enrichment of -1.34.
`UGGCCCUGGUGGCAUGCGGGGAGGAAGAGGUGGCCUCAUGGAUCGUGGUGGUCCCGGUCGAAUGUUCAGAGGUGGCCGUGGUGGAGACAG` gave a log2 enrichment of 1.59.
`CCUCAAGUCCUGUGCUACACAUCGUAUGUACCGAAUCGGUUGGUUGGGUUGGAAAGUAUUAUGUUACGCCGUUCGGAUCUGCACUUCCAG` has a log2 enrichment of -0.77.

Set 2
Target: Histone acetyltransferase KAT6A, winged helix 1, GST fusion (KAT6A, Homo sapiens, UniProt Q92794, residues 1-85)
Method: protein binding microarray
Form: double-stranded DNA, one strand shown
Matrix: in vitro
Concentration: not given
Setting: 8-mer, flanks averaged, mean of 2 arrays, mostly near background
Baseline: not given
Reading: higher = stronger binding
Construct (chain): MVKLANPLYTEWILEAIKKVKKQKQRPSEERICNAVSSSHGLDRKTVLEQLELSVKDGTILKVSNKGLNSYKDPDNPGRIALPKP
`CTCGTGGA` gave an E-score of -0.293.
`TAGGCTCA` gave an E-score of -0.2.
With `ATGTGCGG` the E-score was 0.267.
With `CCGCTCAC` the E-score was 0.385.
With `GTCCACAA` the E-score was -0.292.
With `TATTGAAA` the E-score was -0.0995.
`CCTTTTCG` gave an E-score of -0.111.
The E-score of `AGTCTTGC` is reported as 0.0304.
`ACCCTATG` gave an E-score of -0.157.
With `AGCTATTC` the E-score was -0.0793.
`ATGCAAAG` gave an E-score of -0.142.
`ACGTCCAC` has an E-score of -0.111.
With `CATATGCA` the E-score was -0.134.
The E-score of `CACGAGCA` is reported as -0.264.
For `GATCACAA`, the E-score was -0.142.
`CAGCGGTA` gave an E-score of 0.283.
`TCATACAA` gave an E-score of -0.028.
`AATGCCGT` gave an E-score of 0.4.
For `GTGTGGTA`, the E-score was -0.227.
`GTAATGAA` has an E-score of -0.00458.
`AAAAATCG` gave an E-score of -0.117.
`TATTTGCA` gave an E-score of -0.319.

Set 3
Target: RING finger protein unkempt homolog, zinc fingers 1-6, GST-SBP tag (UNK, Homo sapiens, UniProt Q9C0B0, residues 30-357)
Method: RNA Bind-n-Seq
Form: RNA
Matrix: in vitro
Concentration: not given
Setting: RNA with constant flanks, human and mouse sites, ends assumed
Baseline: input RNA pool
Reading: higher = stronger binding
All sequences stand within: GGGAGUUCUACAGUCCGACGAUC … CAACAGAGGAUUGAGCAUCA
Residues (chain): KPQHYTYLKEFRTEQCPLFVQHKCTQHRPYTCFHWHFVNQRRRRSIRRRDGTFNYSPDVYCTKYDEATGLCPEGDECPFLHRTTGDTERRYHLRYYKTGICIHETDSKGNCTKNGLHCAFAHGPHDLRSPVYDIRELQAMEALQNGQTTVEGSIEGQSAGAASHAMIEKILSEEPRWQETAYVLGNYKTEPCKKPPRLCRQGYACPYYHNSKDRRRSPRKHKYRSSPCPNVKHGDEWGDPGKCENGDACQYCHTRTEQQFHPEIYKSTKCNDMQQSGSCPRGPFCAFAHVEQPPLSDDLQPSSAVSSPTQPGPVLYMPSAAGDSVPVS
For `UUUGUUGCUGCUUCCUAUGAUAUACGAGGAAACUUCAUCAAAUGGCAACCUUUAGAAGGUGGUGUUUUACAGCUUUGUCCAGACACUGAGAGAAGGCUGGAUGCAGCGUAUGCUUUUGGA`, the bound/input enrichment was 0.217 ratio.
The bound/input enrichment of `AAGUACAUCCACAUCCUGGCUUACGCUGCCAGUGUGGUUGAGACCUGGAAGAAGAACAAGCGGGUCAGCAUUGGCAAAGACGAGCUCAAGUCCACGUCAAAGGCUAUCGAGACUGUCCAC` is reported as 0.0848 ratio.
`UCCAAAAAGAUUCAGCAGAUCCAUGUGGUUUCCCAGUUUAAGAUUCUGGUCAGCUUGUUAGAAAAUAACAUUUAUGUCCAUGACCUAUUGACAUUUCAACAAAUCACUACGGUUUCAAAG` gave a bound/input enrichment of 0.153 ratio.
`AUUUGGUCAAGAUAUUCACUUGUAAUUAUACCAAAAAAUUGGAGUUUGUUCGCUGUUAAUUUCUUUGUGGGGUCAGCAGGAGCCUCUCAGCUGUUUCGGAUUUGGAGAUAUAACCAAGAA` gave a bound/input enrichment of 0.544 ratio.
For `GAUGCUUUGAACAUUGAAACAGCCAUCAAGACCAAAGGUGUGGAUGAGGUCACCAUUGUCAACAUUUUGACCAACCGCAGCAAUGCACAGAGACAGGAUAUUGCCUUCGCCUACCAGAGA`, the bound/input enrichment was 0.17 ratio.
`GACAGGGUCGGGGACAUCCACAUCUUGGAAGUCACGAAUAAUCUAGAACAUAAGACCUCUUUUAGUAUUUCCAAUUUUCUCAACAAGAGCAGGGGGAGUAAUUUCAGUGCAAGUCAGAGC` has a bound/input enrichment of 8.39 ratio.
`CUGCCACCUUCCCUCCUGUAAUUAUUUUCUAUUUUUGUAAACUUGUUGCAUUUUUAUAUGAUUUUCUUGACUGCACGUUGGCCAGAAGGACUGCUGGCCUGGCCUCCUUUCCGUCCGGGC` gave a bound/input enrichment of 2.34 ratio.
`AAAAUUUAUUUCAUGCCCUGGACUCCCUAUCGUACCGAUACUUUAAUAGAAUAUGCUUCUUUAGAAGAUUUCCAAAAUAGUCGCCAAACAACAACAUAUAAACUUCCAAAUCGAGUAGAU` has a bound/input enrichment of 8.88 ratio.
`UAUGAAAACACUGAAGAAAAGUCACGAAUCAGAUACAAUGUCCAACAGAAUUGUGCAUAUUAGUGUUCAGUUGUUCAGCAAUGAGGAGCUAGCCAGACAGGUGACAGAAGAGUGUCAGCU` gave a bound/input enrichment of 0.258 ratio.
With `GAGUUUCUUGCUUUGACAUUCAGUGAAAAUGAGAAAAACGCUGCGUACUAUGCGUUAGCAAUAGUGCAUGGAGCGGCCGCUUAUCUCCCAGACUUCUUGGACUACUUUGCUUUUAAUUUU` the bound/input enrichment was 0.0732 ratio.
With `ACGGUUGGCCAUGGGUCUGACUACUCUUUGAGUGAAGUGCUCUGGGUCUGUGCCAACCUCUUCAGCGACGUCCAGCUCAAGAUGAGUCACAAGAGGAUCAUGCUGUUCACCAAUGAAGAC` the bound/input enrichment was 0.13 ratio.

Set 4
Target: Prothrombin, mature alpha-thrombin (F2, Homo sapiens, UniProt P00734)
Method: aptamer microarray, sandwich
Form: DNA with 2'F-ANA
Matrix: in vitro
Concentration: 200 nM
Setting: whole 15-mer aptamer, many near background
With: Cy3 exosite-II aptamer, 400 nM
Reading: higher = stronger binding
Sequence: GGTTGGTGTGGTTGG
`2'F-ANA at 1 7 8 9 10 11 12 15`: “mean fluorescence intensity” 74 a.u.
For `2'F-ANA at 1 2 3 4 5 6 8 11 13 14`, “mean fluorescence intensity” read 48.2 a.u.
For `2'F-ANA at 3 4 5 6 8 9 10 12 13 14 15`, “mean fluorescence intensity” read 49.4 a.u.
`2'F-ANA at 2 3 4 5 8 9 10 12 15`: “mean fluorescence intensity” 55.2 a.u.
`2'F-ANA at 2 3 4 7 8 9 10 11 12 14 15`: “mean fluorescence intensity” 169 a.u.
`2'F-ANA at 1 2 3 6 10 13 14`: “mean fluorescence intensity” 54.3 a.u.
For `2'F-ANA at 6 7 8 10 14`, “mean fluorescence intensity” read 129 a.u.
`2'F-ANA at 6 7 9 10 11 13 14` — result for “mean fluorescence intensity”: 97.8 a.u.
Under “mean fluorescence intensity”, `2'F-ANA at 2 3 4 6 7 10 11 12 15` is recorded as 245 a.u.
`2'F-ANA at 1 4 5 7 8 12`: “mean fluorescence intensity” 118 a.u.
For `2'F-ANA at 1 3 4 5 6 7 8 9 12 15`, “mean fluorescence intensity” read 138 a.u.
`2'F-ANA at 1 3 4 5 7 9 10 11 14 15`: “mean fluorescence intensity” 77.5 a.u.
`2'F-ANA at 3 6 7 10 11 14 15`: “mean fluorescence intensity” 362 a.u.
`2'F-ANA at 3 6 7 8 9 12 14 15`: “mean fluorescence intensity” 721 a.u.
`2'F-ANA at 1 2 3 4 5 7 10 13 14` — result for “mean fluorescence intensity”: 49.8 a.u.
Under “mean fluorescence intensity”, `2'F-ANA at 1 6 7 9 11 12 14 15` is recorded as 62.7 a.u.
`2'F-ANA at 3 4 6 9 11` — result for “mean fluorescence intensity”: 490 a.u.
Under “mean fluorescence intensity”, `2'F-ANA at 1 2 3 4 5 6 7 9 11 12 13 15` is recorded as 68.3 a.u.
Under “mean fluorescence intensity”, `2'F-ANA at 2 3 5 6 8 9 11 13` is recorded as 71.3 a.u.
`2'F-ANA at 2 5 6 7 12 14`: “mean fluorescence intensity” 47 a.u.

Some of these lines once more (set 2):
`TCATACAA` gave an E-score of -0.028.
For `GATCACAA`, the E-score was -0.142.
With `GTCCACAA` the E-score was -0.292.
The E-score of `AGTCTTGC` is reported as 0.0304.
With `AGCTATTC` the E-score was -0.0793.
`ATGCAAAG` gave an E-score of -0.142.
For `GTGTGGTA`, the E-score was -0.227.
`CCTTTTCG` gave an E-score of -0.111.
The E-score of `CACGAGCA` is reported as -0.264.
`AATGCCGT` gave an E-score of 0.4.
